# Measurements of several laboratories.
# Every numbered part comes from another study and shows a few of its results, in no order. Changes are numbered by the printed parent chain.

# Sample 1 — target: FOSL2, bZIP domain (human); method: DHFR protein complementation; medium: yeast; reference: wild-type JUN-FOS pair; reading: higher = stronger binding
# Setting: single substitutions, most at no-binding floor
# Starting sequence: JUN, bZIP domain (human); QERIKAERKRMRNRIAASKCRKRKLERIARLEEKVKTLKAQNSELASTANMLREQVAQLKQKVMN; partner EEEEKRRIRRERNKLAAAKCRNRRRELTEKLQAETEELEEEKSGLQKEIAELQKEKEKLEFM
Change,binding fitness [natural log]
S43T,0.109
S43M,0.0669
L52Q,-1.5
A46H,0.0564
E33A,0.0378
K36T,-0.0192
A49V,0.0803
E32K,0.0558
A49I,-0.158
K34G,0.0725
E54M,0.0107
Q41M,-0.0225
M51R,0.0921
A29P,-0.188
K39Q,-0.112
Q41D,-0.0449
V56T,-0.431

# Sample 2 — method: DHFR PCA, deep sequencing; medium: yeast; added: (+)-ABA 58 µM; reference: wild-type fitted maximum; reading: higher = stronger binding
# Target: ABI1, truncated, D143A, DHFR fusion (Arabidopsis thaliana)
# Setting: methotrexate growth selection, single substitutions
# Starting sequence: PYL1, truncated, DHFR fusion (Arabidopsis thaliana); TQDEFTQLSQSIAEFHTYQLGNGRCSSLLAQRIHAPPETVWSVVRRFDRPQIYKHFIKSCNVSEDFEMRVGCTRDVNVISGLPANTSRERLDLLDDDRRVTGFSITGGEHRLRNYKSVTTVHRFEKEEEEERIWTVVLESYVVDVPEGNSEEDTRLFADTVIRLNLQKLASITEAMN
Change,relative binding score
S171D,86.9%
E174N,57.4%
A84K,5.54%
F47V,-0.746%
Q167A,84.5%
S140F,2.41%
A158C,93.2%
C25R,4.96%
G148Q,63.8%
T101L,89.9%
P50F,-9.05%
S9G,90.2%
F56E,10%
A175Y,71.9%

# Sample 3 — method: universal PBM; form: double-stranded DNA, one strand shown; medium: in vitro; concentration: not given; reading: higher = stronger binding
# Target: Sal-like protein 4, full length isoform B (SALL4, Homo sapiens, UniProt Q9UJQ4-2, residues 1-616)
# Setting: 8-mer, flanks averaged, mean of replicates
# Residues (chain): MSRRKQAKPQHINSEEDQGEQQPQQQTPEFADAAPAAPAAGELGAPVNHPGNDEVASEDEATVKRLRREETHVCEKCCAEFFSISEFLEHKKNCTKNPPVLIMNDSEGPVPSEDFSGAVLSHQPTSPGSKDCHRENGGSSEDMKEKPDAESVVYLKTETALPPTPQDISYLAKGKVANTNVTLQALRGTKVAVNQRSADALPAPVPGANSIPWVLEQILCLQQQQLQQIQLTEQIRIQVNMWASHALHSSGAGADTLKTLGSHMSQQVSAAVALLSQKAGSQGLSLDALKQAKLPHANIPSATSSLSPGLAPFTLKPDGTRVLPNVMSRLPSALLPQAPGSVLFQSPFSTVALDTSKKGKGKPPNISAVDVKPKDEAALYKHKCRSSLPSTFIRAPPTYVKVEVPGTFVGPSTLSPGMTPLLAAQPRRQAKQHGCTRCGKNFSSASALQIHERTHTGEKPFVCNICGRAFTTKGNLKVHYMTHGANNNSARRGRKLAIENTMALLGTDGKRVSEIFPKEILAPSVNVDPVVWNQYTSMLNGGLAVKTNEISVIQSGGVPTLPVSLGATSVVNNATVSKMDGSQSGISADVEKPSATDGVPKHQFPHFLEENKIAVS
Strand,E-score
AGTCTATG,-0.00455
CCTAACTA,0.142
ATTATTGC,0.357
CCCGGGAC,-0.326
AAATTGTC,0.16
AACACGTA,0.261
GATGATCC,-0.0319
CATAGTCG,0.0611
AACTCACA,0.137
CACCTTCC,-0.18
TTGATCAA,0.191
GCTCTGTA,0.031
ACCATTCT,0.0114
ATCTTGGA,0.00395
TAAAACCA,0.208
AACATGTC,0.0406
GACTATTA,0.188
CCTGAAGA,-0.144
GAGTCAAC,0.00201
CAGACAGA,-0.00554
ATACCGCC,-0.156
CGAGAACA,-0.137
CCATTCAA,0.134

# Sample 4 — method: protein binding microarray; form: double-stranded DNA, one strand shown; medium: in vitro; concentration: not given; reference: not given; reading: higher = stronger binding
# Target: Histone acetyltransferase KAT6A, winged helix 1, GST fusion (KAT6A, Homo sapiens, UniProt Q92794, residues 1-85)
# Setting: 8-mer, flanks averaged, mean of 2 arrays, mostly near background
# Construct (chain): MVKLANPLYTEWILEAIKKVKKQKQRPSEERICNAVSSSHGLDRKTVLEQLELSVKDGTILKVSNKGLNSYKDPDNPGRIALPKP
Strand,E-score
GCCCCCTA,-0.159
CGCTGTCA,0.0519
ATGGCCAA,-0.195
GCTTATAA,-0.0974
GATTTCAC,-0.0999
CTTCTGGC,-0.283
GACATTTA,-0.145
CTCTATAA,-0.162
TATAGGCA,-0.27
GCCGCTCA,0.394
ATTTGAGA,0.0165
GCGATCGC,0.352
CGCTGGGA,-0.0302
ATGGGATC,-0.0985
GGCGGTTA,0.268
TCACATAA,-0.0274
AAGGGGAC,-0.108
GAACCTTA,-0.0874
ATAGCGAG,0.0836
CAGATAAG,-0.112
GACAGCCA,-0.0859
CTTGATCA,-0.0739
AAGTCATT,-0.105
AGGAGTCC,-0.0401
AGTTTGAG,-0.263

# Sample 5 — target: CCNB1, cyclin fold, Cln2 fusion (human); method: yeast growth competition, sequencing; medium: yeast; setting: strong parent motif; reference: not given; reading: higher = stronger binding
# Starting sequence: CUX1 docking peptide (human); SRIRRELFIEEIQ
Change,normalised enrichment score
SAIRRELFIEEIQ [R2A],1.4
SRIRRELFIEEIA [Q13A],1.74
SRIRRELFIAEIQ [E10A],0.89
SRIRRALFIEEIQ [E6A],1.66
SRIRKELLIEEIQ [R5K F8L],0.408
SRIRAEAFIEEIQ [R5A L7A],0.205
SRIRRELAIEEIQ [F8A],0.713
SRIRRELFAEEIQ [I9A],0.85
SRIRKELFIEEIQ [R5K],1.11
SRIRAELFIEEIQ [R5A],0.379

# Sample 6 — method: RNA Bind-n-Seq; form: RNA; medium: in vitro; concentration: 365 nM; reference: no-protein control; reading: higher = stronger binding
# Target: RNA binding protein fox-1 homolog 2, RRM domain, GST-SBP tag (RBFOX2, Homo sapiens, UniProt O43251-10, residues 100-194)
# Setting: natural RNA segment, single round, ends assumed
# All sequences stand within: GGGAGUUCUACAGUCCGACGAUC … UGGAAUUCUCGGGUGCCAA
Strand,RBNS enrichment (R)
GUACUUAAUAUAAAAAUCAAUGUCUUUAGAUAAAUACUUUCAUAGUUCUAAUUUGGGUUAAUAUUUUUAAAUGUAUUGUUUACUUUUGUAAUUAUAUACACAACAAAUAU,0.553
AAUUAAAAGAGAAACUGUAACAGUCUAUAUCACUAUACCCUUUUAGUUUUAUAAUUAGCAUAUAUUUUGUUGUGAUUAUUUUUUUUGUUGGUGUGAAUAAAUCUUGUAAC,1
CGCAGUAAACAACAGAGGGGUUGCUGGACUUGAGGGUGACGAGACAGAUGAUCAUAGCAGGGAUUUGAAAUAUGAAUUAUGGUUACAUGGUCCUGAUUUUUUUUUUUUGG,1
GGUGCUGCUGUCACCCAGCUAUCUCUCCUUCCUCUAUGAUCUUUGUUUUCUGCCUUCCCACCUUCUCCCCCAGUGUUCGGAUGAAUGUUCCUGGCUGUCUCUGUUCCCUU,1.6
GUAAGCUAUAGCAUAUGUUUUUUAAGACUUAAGCAUUUCAUGCUUUAAAAUACCUUCACAAGUGAACAUUACACACAGAAGUUCAUUUGGUUUUCCUUUGUUUUAUGGUG,0.395
AACUCCCAUCUGAGGUGGGUACCACCCCUUCCUCAGUACCCACCGUGGAUACUGCAUGUGAACUAUGGUUUUGAACUCUUCCUCCUCCUCCUUGAGAGCCCCGCCCUGCG,12.6
UGUGCGCUCGAGUGUGUAAGUGUGGGUGUGUGGGUGUGUGUGUGUGGUCUGCUCAUCUCUUUAGGGAACUUUGAGGUGGGCGGUGGCAUAUGGAGGGGUGUCAGGUUCUA,1.34
GCCAAUUGUUUUGCAGUACUUUAUUAUAUUGGGUGUCUUGUCUUUUUUGGGCUUUUAGUUAGCUAAUGAAUGAAUACAUUAGACACUUUUGGGUUUUAGUUGGGAUUUUA,0.604
AGAAGAAGCUUCUUCCAUCUUAUCUACCUACUGCAGCUGCUGCUUUGCGGGGGGGCCCUACUGUACUGAGGGGAAACCCACAAGUGAGCAUGGGGGAAUGCCCAUCCUGG,0.857
CCUGCACUCAAGCCGCAGGGUAGUACAGUUUUACCACAGAGGGACUCUUGAGCAAUGGAGUCACGUGUCUGCCCUGUGUAUUGCAGUUUGUCUUGACACAAGCUGUUUUU,0.407
UUUCUGACGGGACGACACAUCUGGGAAGACAGCGGCGAGUUUUCUGAAGAGAUGAGUGCUCAGAGCCCUCAUGCUGUUGAGGCUAAAGGGAGGCCUGGAACGGUGGGGCG,0.574
UCAGAUUGUGUAUAUGAAAACAUUAGCAAGUCUUGUUUUUUCUAUGAAGCAAACACAAUUGGUGACAAAGGUUGUCAAUCAUUUCUUCAAAAUUAUAAUGCAGUUCUAAU,0.58

# Sample 7 — target: CRIPT, C-terminal peptide; method: DHFR complementation, deep sequencing; medium: yeast; reference: wild type; reading: higher = weaker binding
# Setting: single substitutions, model-inferred values
# Starting sequence: ERBIN, PDZ domain 1 (human); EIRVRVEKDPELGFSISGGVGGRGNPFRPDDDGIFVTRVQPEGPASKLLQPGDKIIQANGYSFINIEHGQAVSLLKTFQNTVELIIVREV; partner TKNYKQTSV
Change,binding free energy change
I64T,0.0254 kcal/mol
D32T,0.232 kcal/mol
V4K,0.92 kcal/mol
E89Y,0.0873 kcal/mol
T37K,1.41 kcal/mol
P41S,0.301 kcal/mol
T81W,-0.0808 kcal/mol
R23K,0.337 kcal/mol
S73C,0.012 kcal/mol
L75C,-0.0675 kcal/mol
N59K,0.385 kcal/mol
V36R,0.583 kcal/mol
G13H,1.5 kcal/mol
Q40W,0.578 kcal/mol
T81I,0.0976 kcal/mol
G60L,0.192 kcal/mol
R88V,0.255 kcal/mol
R38P,1.4 kcal/mol
E11C,-0.543 kcal/mol
E1A,0.202 kcal/mol
P41Q,0.209 kcal/mol

# Excerpt of the above (sample 1):
Change,binding fitness [natural log]
K34G,0.0725
E54M,0.0107
Q41M,-0.0225
M51R,0.0921
A29P,-0.188
K39Q,-0.112
Q41D,-0.0449
V56T,-0.431
